Measured values of several laboratories.
Parts stem from different laboratories: compare values within a part only. Changes are numbered by the printed parent chain.

Series 1
Target: ABI1, truncated, D143A, DHFR fusion (Arabidopsis thaliana)
Technique: DHFR PCA, deep sequencing
Medium: yeast
Setting: methotrexate growth selection, single substitutions
Together with: (+)-ABA 2500 µM
Baseline: wild-type fitted maximum
Reading: higher = stronger binding
Quantity: relative binding score
Parent: PYL1, truncated, DHFR fusion (Arabidopsis thaliana); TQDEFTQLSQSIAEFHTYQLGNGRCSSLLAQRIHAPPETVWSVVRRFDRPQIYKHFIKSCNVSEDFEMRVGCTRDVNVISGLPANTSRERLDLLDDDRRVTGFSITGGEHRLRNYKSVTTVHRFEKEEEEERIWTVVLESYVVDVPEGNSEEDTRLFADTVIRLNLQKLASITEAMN
Change = I33W; value = 10.6%
Change = S117A; value = 105%
Change = A158L; value = 99.2%
Change = F103H; value = 78.1%
Change = E38A; value = 94.2%
Change = G23S; value = 100%
Change = C72M; value = 95.9%
Change = G107M; value = 89.6%
Change = S26A; value = 94.6%
Change = I172E; value = 87.2%
Change = Y18L; value = 94%
Change = L169E; value = -4.16%
Change = R90A; value = 90.3%
Change = F15K; value = 78.9%
Change = Y18M; value = 95%
Change = D153R; value = 10.8%
Change = E4F; value = 101%
Change = F56G; value = 53.3%

Series 2
Target: Interferon regulatory factor 7, full length, phosphomimetic (IRF7, Homo sapiens, UniProt Q92985, residues 1-503, S101K/S471D/S472D/S475D/S476D/S477D/S483D/S484D/S487D)
Technique: protein-binding microarray
Form: double-stranded DNA, one strand shown
Medium: in vitro
Concentration: 250 nM
Setting: 60-bp whole probe
Together with: salmon DNA 0.4 mg/ml
Baseline: random background probes
Reading: higher = stronger binding
Quantity: log fluorescence
Shared flanks, not repeated: GCCTAGCAC … GTCTTGATTCGCTTGACGCTGCTG
Target sequence (chain): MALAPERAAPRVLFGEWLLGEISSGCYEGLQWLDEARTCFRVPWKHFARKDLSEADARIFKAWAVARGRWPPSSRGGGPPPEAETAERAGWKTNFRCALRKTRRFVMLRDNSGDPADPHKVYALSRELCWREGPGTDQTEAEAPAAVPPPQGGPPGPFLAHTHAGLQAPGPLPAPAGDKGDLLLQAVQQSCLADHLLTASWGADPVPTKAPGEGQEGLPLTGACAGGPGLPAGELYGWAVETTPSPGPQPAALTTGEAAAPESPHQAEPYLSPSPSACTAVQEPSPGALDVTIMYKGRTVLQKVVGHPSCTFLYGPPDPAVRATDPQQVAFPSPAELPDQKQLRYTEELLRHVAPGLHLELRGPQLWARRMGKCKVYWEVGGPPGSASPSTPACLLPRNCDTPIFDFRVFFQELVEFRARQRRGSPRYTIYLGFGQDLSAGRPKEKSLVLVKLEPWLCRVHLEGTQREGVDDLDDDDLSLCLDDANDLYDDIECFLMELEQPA
Strand = TTAGGACTGGGGTCTGGGTTAGTGCTA; value = -0.503 z-score
Strand = TTAGGACTGGACTATAGGTTAGTGCTA; value = -0.349 z-score
Strand = GACGAGATCGGGTTTCGAGACGTGCTA; value = 3.49 z-score
Strand = TTAGGTATCGGTGTCGGTTAGTGCTAG; value = 0.223 z-score
Strand = TTAGGTATCCTTCTCCTCTAGTGCTAG; value = 0.971 z-score
Strand = GATGGTATCGGGTTTCGGGACGTGCTA; value = 3.74 z-score
Strand = GACGGACTGGCGACTGGGGACGTGCTA; value = -0.751 z-score
Strand = TTAGATCTTAGTTTCGATTAGTGCTAG; value = 9.56 z-score
Strand = GACGAACTGAGTATCCAGACGTGCTAG; value = -0.152 z-score
Strand = GACGGTTTCGGTATCCGGACGTGCTAG; value = 11.6 z-score
Strand = GACCGTATCGGTTTCGGGACGTGCTAG; value = 4.95 z-score
Strand = TCAGATTCCAGTTTCGATTAGTGCTAG; value = 9.85 z-score
Strand = GACGGTATCGGGTTTTGGGACGTGCTA; value = 0.888 z-score
Strand = GACGGCCTGCTTATCCTGACGTGCTAG; value = -0.431 z-score

Series 3
Target: Fragile X messenger ribonucleoprotein 1, C-terminal low-complexity region (Fmr1, Mus musculus, UniProt P35922)
Technique: RNA Bind-n-Seq
Form: RNA
Medium: in vitro
Concentration: 200 nM
Setting: whole 134-nt RNA, ends assumed
Together with: 150 mM KCl
Baseline: input library
Reading: higher = stronger binding
Quantity: log2 enrichment
Shared flanks, not repeated: GGGAGUUCUACAGUCCGACGAUC … UGGAAUUCUCGGGUGUCAAGG
Strand = UAACUUUAGAGGAGGAUCUGAUGGAUAUGGCAGUGGACGUGGAUUUGGGGAUCGCUAUAAUGGGUAUGGAGGAGGACCUGGAGGUGGCAA; value = 0.14
Strand = CUCAAGUCCUGUGCUACACAUCGUAUGUACCGAAUCGGUGGUUUGGAAAAAGGAAAGUAUUAUGUUACGCCGUUCGGAUCUGCACUUCCA; value = -0.132
Strand = AGUCCUGUGCUACACAUCGUAUGUACCGAAUCGGGAAAAAAAGGGAGGGAAAAAGGGAAAGUAUUAUGUUACGCCGUUCGGAUCUGCACU; value = 0.139
Strand = GUCCUGUGCUACACAUCGUAUGUACCGAAUCGGGUGGGAAAAAAAGGGUUUUUUUGGGAAAGUAUUAUGUUACGCCGUUCGGAUCUGCAC; value = 0.136
Strand = UCCUGUGCUACACAUCGUAUGUACCGAAUCGGCCCCCGGGGCCCCCGGGGCCCCCGGGGAAAGUAUUAUGUUACGCCGUUCGGAUCUGCA; value = -1.05
Strand = AGUCCUGUGCUACACAUCGUAUGUACCGAAUCGGAAAAAAAGGUUUUUGGAAAAAGGAAAGUAUUAUGUUACGCCGUUCGGAUCUGCACU; value = -1.41
Strand = GUGCUACACAUCGUAUGUACCGAAUCGGGGAAAAAAAGGGGUUUUUUUGGGGAAAAAAAGGGGAAAGUAUUAUGUUACGCCGUUCGGAUC; value = 0.299
Strand = GCAGGAAGUAAAAAAAAAUGGAAAUGCUUCGGAUAGUGGCAGGGGUGGGGGUUGCUAAGGAAAGGGUGGGAUGGGAGUGGGUAAAGAGUU; value = -0.0728
Strand = UCAAGUCCUGUGCUACACAUCGUAUGUACCGAAUCGGAGGAAAGGAAAAAAAGGAAAGUAUUAUGUUACGCCGUUCGGAUCUGCACUUCC; value = -0.689
Strand = GCAGGAAGUGAAAACAAAUGGAAAUGCUUCGGAUAGUGGCAGGGGUGGGGGUUGCUAAGGAAAGGGUGGGAUGGGAGUGGGUAAAGAGUU; value = 0.178
Strand = UUCAAGGAAAAACAAGAGGAGCAGGCUCGCCUCCUUGAUGAACUGGCAGGCAAGCUACAAAGCCUAGACCUUUCAGCCGCUGCCGAAAUG; value = -1.36
Strand = AUUUUUUGUAUCAAGUCCCUGAAUGGAAGUAUGACGUUGGGUCCCUCUGAAGUUUAAUUCUGAGUUCUCAUUAAAAGAAAUUUGCUUUCA; value = -1.52
Strand = UGGGAGGUGGAUUUUGUUUAUUUUUUUAGCUCAUUUCCAGGGGGGGGAAUUUUUUUUUAAUAUGUGUCAUGAAUAAAGUUGUUUUUGAAA; value = 0.318
Strand = UCAAGUCCUGUGCUACACAUCGUAUGUACCGAAUCGGGCCGGGCCGGGGCCGGGAAAGUAUUAUGUUACGCCGUUCGGAUCUGCACUUCC; value = 0.318

Other studies, line by line
Molecule = PhoQ, residues 284 288 289 292 302 303 AQGLTV; target = PhoP, residues 12 14 15 18 19 MHTVL (Escherichia coli, UniProt P23836); assay = Sort-seq, refers to: YFP reporter; system = E. coli; conditions = PhoQ-PhoP variant library, together with: 10 µM Mg2+; scale = baseline: high Mg2+ state, higher = stronger signaling; quantity = fold induction; value = 5.39

Excerpt of the above (series 3):
Strand = CUCAAGUCCUGUGCUACACAUCGUAUGUACCGAAUCGGUGGUUUGGAAAAAGGAAAGUAUUAUGUUACGCCGUUCGGAUCUGCACUUCCA; value = -0.132
Strand = UCAAGUCCUGUGCUACACAUCGUAUGUACCGAAUCGGAGGAAAGGAAAAAAAGGAAAGUAUUAUGUUACGCCGUUCGGAUCUGCACUUCC; value = -0.689
Strand = AUUUUUUGUAUCAAGUCCCUGAAUGGAAGUAUGACGUUGGGUCCCUCUGAAGUUUAAUUCUGAGUUCUCAUUAAAAGAAAUUUGCUUUCA; value = -1.52
